Experimental data collected from several papers.
Each line is one published result; not all experiments were run side by side. ± marks the error that the study gave. Converted amounts (≈) assume the structure as drawn.

SMILES	organism	test	test system	setting	how to read	measurement	value
Nc1ccn(C[C@@H](CO)OCP(=O)(O)OCCCS(=O)(=O)CCCCCCCCCCC2CCC2)c(=O)n1	human gammaherpesvirus 8	qPCR	BCBL-1	7 days		EC50	0.02 ± 0.01 µM
C=C(CO)C(=O)O[C@H]1CC(=C)[C@@H]2C[C@H](O)[C@](O)(CCl)[C@@H]2[C@H]2OC(=O)C(=C)C12 (stereo partly shown)	Proteus vulgaris			concentration not given		inhibition zone	9 ± 1.3 mm
CC1(CCCCCCCCCCOCCCOP(=O)(O)CO[C@H](CO)Cn2ccc(N)nc2=O)COC1	Murid betaherpesvirus 1	qPCR	MEF, Smith		reference: CC50 over EC50	selectivity index	> 2
CCCCCCCCCCCCCCCCCCCCCCCCCCCCCCOC(=O)/C=C/c1ccc(O)cc1	Pichia kudriavzevii		ATCC 6258		reference: compound over fluconazole	MIC ratio	2.5
CCOC(=O)C1=C(C)NC2=C(C(=O)CC(C)(C)C2)C1c1ccc(OCC(=O)NN=Cc2cc(Br)c(O)c(Br)c2)cc1OCC(=O)NN=Cc1cc(Br)c(O)c(Br)c1 (stereo not shown)	Brevibacillus brevis			concentration not given, 24 h, 37 °C		inhibition zone diameter	11.4 ± 0.3 mm
CO[C@H]1/C=C/O[C@@]2(C)Oc3c(C)c(O)c4c(c3C2=O)C2=NC3(CCN(CC(C)C)CC3)NC2=C(NC(=O)/C(C)=C\C=C\[C@H](C)[C@H](O)[C@@H](C)[C@@H](O)[C@@H](C)[C@H](OC(=O)c2ccccc2-c2ccccc2)[C@@H]1C)C4=O	Mycobacteroides abscessus		ATCC 19977		reference: wild type over arr deletion	MIC ratio	1.8
O=C(O)C1(O)Oc2cc(F)ccc2N(Cc2ccccc2)C1=O (stereo not shown)	Arabidopsis thaliana		2-week-old plants	foliar spray, 200 µg/mL, 20 days		fresh weight inhibition	76%
COc1ccc(-c2nc(-c3ccccc3OC)[nH]c2-c2ccc(OC)cc2)cc1	Schistosoma mansoni		mature male and female worms	50 µM, 96 h		worm killing	0%
CN(C)CCCSC(=S)N1CCN(C(=O)/C=C/c2coc3ccccc3c2=O)CC1	PMMoV	virus inactivation		500 µg/mL, mean		inhibition	70.8%
C=CCSc1nnc([C@H](Cc2ccccc2)NC(=O)Cc2c(C)[nH]c3ccccc23)n1-c1ccc(OC)cc1	HIV-2		MT-4, wild type		reference: CC50 over EC50	selectivity index	6
CC[P+](CC)(CC)[Au-][S][C@@H]1O[C@H](COC(C)=O)[C@@H](O[C@H]2O[C@H](COC(C)=O)[C@@H](OC(C)=O)[C@H](OC(C)=O)[C@H]2OC(C)=O)[C@H](OC(C)=O)[C@H]1OC(C)=O	Enterococcus faecium		ATCC 700221	concentration not given	reference: auranofin	fold activity enhancement	2 to 4
CCCCCCC[C@@H](CC(=O)O)OC(=O)C[C@@H](CCCCCCC)O[C@@H]1O[C@@H](C)[C@H](O)[C@@H](O)[C@H]1O	Aliivibrio fischeri	bioluminescence reduction, Microtox		30 min		EC50	56.4 ± 15.2 µM
CNCc1ccc2c(c1)N(C(=O)OCc1ccccc1)[C@H](CNC(=N)N)[C@H]2NC(=O)C(=O)Nc1ccc(Cl)c(F)c1	HIV-1 JR-FL pseudovirus	viral infection	Cf2Th-CD4/CCR5 cells		reference: BNM-III-170	potency fold increase	11 fold
COc1cccc(CSc2nc3cc4ccccc4cc3c(=O)n2C)c1	coxsackievirus B4	plaque	BGM	concentration not given, non-toxic dose		virus titre reduction	23.3 ± 2%
O=C(Nc1ccccc1Nc1ccccc1)c1cccnc1F	Valsa mali	mycelial growth, mycelial growth rate method		50 mg/L		inhibition	6.82%
CCn1c(NN)nc2cc3ccccc3cc2c1=O	coxsackievirus B4	plaque	BGM	concentration not given, non-toxic dose		virus titre reduction	10 ± 1%
CCCCCCSC[C@H]1CN(Cc2c[nH]c3c(N)ncnc23)C[C@@H]1O	Helicobacter pylori	growth	horse blood agar 5%			IC90	4 to 8 ng/mL (≈ 0.011 to 0.022 µM)
CN[C@@H]1[C@H](O)[C@H](NC)[C@H]2O[C@]3(O)[C@H](O[C@@H]2[C@H]1O)O[C@H](C)C[C@@]3(O)CNCc1ccc(F)cc1	Mycobacteroides abscessus	LC-MS/MS, item: intracellular compound	ATCC 19977	100 µM, 30 min	reference: compound over spectinomycin	intracellular accumulation ratio	4.3 fold
CC1(CCCCCCCCCCCCCCOCCCOP(=O)(O)CO[C@H](CO)Cn2ccc(N)nc2=O)COC1	human gammaherpesvirus 8	qPCR	BCBL-1		reference: CC50 over EC50	selectivity index	> 1670
OC[C@H]1O[C@@H](n2cnc3c(SCc4ccccc4)nc(Cl)nc32)C[C@@H]1O	Helicobacter pylori	microbial growth, absorbance	26695	10.8 µM		inhibition	5%
CCCCCCCCCC(=O)N[C@@H](Cc1c[nH]c2ccccc12)C(=O)N[C@H](CC(N)=O)C(=O)N[C@@H](CC(=O)O)C(=O)N[C@@H]1C(=O)NCC(=O)N[C@@H](CCCNC(=O)OC2/C=C/CCCCC2)C(=O)N[C@@H](CC(=O)O)C(=O)N[C@H](C)C(=O)N[C@@H](CC(=O)O)C(=O)NCC(=O)N[C@H](CO)C(=O)N[C@@H]([C@H](C)CC(=O)O)C(=O)N[C@@H](CC(=O)c2ccccc2N)C(=O)O[C@@H]1C (stereo partly shown)	Staphylococcus aureus		MSSA	concentration not given	reference: UG gel over TAG gel	activity improvement	71%
CC(C)(C)OC(=O)/C=C/c1ccc(O)c(O)c1	Trypanosoma brucei rhodesiense		STIB900	concentration not given, bloodstream trypomastigotes, active if IC50 < 10 µM		antitrypanosomal activity	active
COc1ccc(-n2c(SCCCN3CCOCC3)nnc2[C@H](Cc2ccccc2)NC(=O)Cc2c(C)[nH]c3ccccc23)cc1	HIV-2	HIV-2-induced cytopathicity, MTT	MT-4, wild type			EC50	3.73 ± 1.02 µM
Cc1ccc(S(=O)(=O)Nn2c3c(cc(-c4nc5ccccc5s4)c2=O)CCCC3)cc1	Human mastadenovirus B	viral replication, plaque reduction	HEp-2 cells, type 7	non-toxic concentration		reduction	30%
CN[C@H](CC(C)C)C(=O)N[C@H]1C(=O)N[C@@H](CC(N)=O)C(=O)N[C@H]2C(=O)N[C@H]3C(=O)N[C@H](C(=O)N[C@H](C(=O)O)c4cc(O)cc(O)c4-c4cc3ccc4O)[C@H](O)c3ccc(c(Cl)c3)Oc3cc2cc(c3O[C@@H]2O[C@H](CO)[C@@H](O)[C@H](O)[C@H]2O[C@H]2C[C@](C)(NCc3ccc(C(=O)OCCCCCCN(Cc4ccccn4)Cc4ccccn4)cc3)[C@H](O)[C@H](C)O2)Oc2ccc(cc2Cl)[C@H]1O	Bacillus subtilis	protein synthesis, item: YtrE.2	168	concentration not given, 10 min, at peak effective concentration	reference: untreated	regulation factor	13.6 ± 6.6
CCOC(=O)C1=C(C)NC2=C(C(=O)CC(C)(C)C2)C1c1ccc(OCC(=O)NN=Cc2cccc([N+](=O)[O-])c2)cc1OCC(=O)NN=Cc1cccc([N+](=O)[O-])c1 (stereo not shown)	Brevibacillus brevis			concentration not given, 24 h, 37 °C		inhibition zone diameter	6.1 ± 0.1 mm
CC(=O)OC[C@H]1O[C@@H](Sc2sc(C(=O)c3ccc(Br)cc3)c(N)c2-c2nc3ccccc3s2)[C@H](OC(C)=O)[C@@H](OC(C)=O)[C@@H]1OC(C)=O	coxsackievirus B4	plaque reduction		non-toxic dose NG, mean over three titres		viral reduction	63.3%
c1ccc(-c2nc(-c3ccc4ccccc4c3)c[nH]2)cc1	Schistosoma mansoni		mature male and female worms	10 µM, 96 h		worm killing	0%

For quick reference, copied from above:
SMILES	organism	test	test system	setting	how to read	measurement	value
COc1cccc(CSc2nc3cc4ccccc4cc3c(=O)n2C)c1	coxsackievirus B4	plaque	BGM	concentration not given, non-toxic dose		virus titre reduction	23.3 ± 2%
CC(C)(C)OC(=O)/C=C/c1ccc(O)c(O)c1	Trypanosoma brucei rhodesiense		STIB900	concentration not given, bloodstream trypomastigotes, active if IC50 < 10 µM		antitrypanosomal activity	active
CC1(CCCCCCCCCCCCCCOCCCOP(=O)(O)CO[C@H](CO)Cn2ccc(N)nc2=O)COC1	human gammaherpesvirus 8	qPCR	BCBL-1		reference: CC50 over EC50	selectivity index	> 1670
